# Published values collected from several papers.
# Every numbered part comes from another study and shows a few of its results, in no order.

# Series 1 — action: inhibitor; tested at: 20 µM
# Target: Replicase polyprotein 1ab, nsp13 helicase (rep, Severe acute respiratory syndrome coronavirus 2, UniProt P0DTD1)
SMILES,inhibition
CCCCCCCCCCCCC/C=C/[C@@H](O)[C@@H](N)COP(=O)([O-])OCC[N+](C)(C)C,8.67%
CC(C)(C)S(=O)(=O)N[C@H]1CC[C@H](C(=O)Nc2ccc(C(F)(F)F)cn2)CC1,4.17%
Cc1[nH]c2ccccc2c1CCNC(=O)c1cccs1,-3.65%
NCCCS(=O)(=O)O,2.63%
COc1cc2c(NC3CCN(CC4CCCCC4)CC3)nc(N3CCCN(C(C)C)CC3)nc2cc1OCCCN1CCCCC1,19.1%
C[C@]12CC[C@@H]3c4ccc(O)cc4C[C@@H](CCCCCCCCC[S+]([O-])CCCC(F)(F)C(F)(F)F)[C@H]3[C@@H]1CC[C@@H]2O (some centres unmarked),2.64%
C#CCOC(=O)C1=CCCN(C)C1,5.97%
O=C1NCCN1CCN1CCC(c2cn(-c3ccc(F)cc3)c3ccc(Cl)cc23)CC1,-1.98%
Cc1ccc(Sc2cncc3sc(C(N)=O)cc23)cc1,1.67%
Clc1cccc(Nc2nnc(-c3ccccc3)c3ccccc23)c1,-4.56%
CN[C@@H]1[C@H](O)[C@H](NC)[C@H]2O[C@@]3(O)C(=O)C[C@@H](C)O[C@H]3O[C@@H]2[C@H]1O,2.59%
COc1ccc(-c2cnc3c(-c4cccc5ncccc45)cnn3c2)cc1,5.3%
CCn1nc(C(=O)O)c(=O)c2cc3c(cc21)OCO3,2.11%
Nc1ccc(S(=O)(=O)NC(=O)c2ccccc2)cc1,0.77%
Cc1ccc(N(CC2=NCCN2)c2cccc(O)c2)cc1,-0.02%
Cc1nc2n(c(=O)c1CCN1CCC(c3noc4cc(F)ccc34)CC1)CCCC2O (centres unmarked),12.4%
C[C@H](Nc1ncnc2nc[nH]c12)c1cc2cccc(Cl)c2c(=O)n1-c1ccccc1,6.07%
O=C1Nc2ccc(I)cc2/C1=C/c1cc(Br)c(O)c(Br)c1,14.1%
COc1ccc2c(C)nc(Nc3nc(C)c(C)c(=O)[nH]3)nc2c1,8.03%
O=C(/C=C/N1C[C@H]2C[C@@H]1CN2c1ccccn1)c1ccccc1O,6.26%
Clc1cccc2c1CN(C1=NCCN1)C2,13.3%
O[C@H]([C@H](O)[C@@H]1CO1)[C@H]1CO1,1.15%
Clc1cc(Cl)c(OCC#CI)cc1Cl,21.6%
CN1CCN(c2c(F)cc3c(=O)c(C(=O)O)cn(CCF)c3c2F)CC1,3.72%
Cc1cc(O)c(-c2ccc([C@@H](C)CN)cc2)c2c1[nH]c(=O)c1sccc12,2.07%

# Series 2 — cell line: HEK-293T; observed: pseudovirus infection; technique: FDA-approved drug library screen; organism: VSV pseudotyped with SARS-CoV-2 spike; tested at: 10 µM; time: 16 h; baseline: vehicle-treated
SMILES,GFP-positive cells [%]
COc1ncnc(NS(=O)(=O)c2ccc(N)cc2)c1OC,68.9
CC12CC3CC(C)(C1)CC(N)(C3)C2,83.1
Cc1nnc(SCC2=C(C(=O)O)N3C(=O)[C@@H](NC(=O)Cn4cnnn4)[C@H]3SC2)s1,70.1

# Series 3 — technique: protein binding microarray; form: double-stranded DNA, one strand shown; matrix: in vitro; tested at: not given; baseline: not given; reading: higher = stronger binding
# Target: Histone acetyltransferase KAT6A, winged helix 1, GST fusion (KAT6A, Homo sapiens, UniProt Q92794, residues 1-85)
# Setting: 8-mer, flanks averaged, mean of 2 arrays, mostly near background
# Construct (chain): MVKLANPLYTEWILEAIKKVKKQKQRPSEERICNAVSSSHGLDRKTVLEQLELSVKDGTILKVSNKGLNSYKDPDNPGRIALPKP
Oligonucleotide,E-score
ACGGCGAC,0.388
ACAACCCG,0.175
CATTACTA,-0.0672
AATTTTGA,-0.128
AATACAGG,0.0696
AATATCCT,-0.155
GCAGTGGC,0.143
AAGACACC,-0.0828

# Series 4 — technique: universal PBM; form: double-stranded DNA, one strand shown; matrix: in vitro; tested at: not given; reading: higher = stronger binding
# Target: Sal-like protein 4, full length isoform B (SALL4, Homo sapiens, UniProt Q9UJQ4-2, residues 1-616)
# Setting: 8-mer, flanks averaged, mean of replicates
# Construct (chain): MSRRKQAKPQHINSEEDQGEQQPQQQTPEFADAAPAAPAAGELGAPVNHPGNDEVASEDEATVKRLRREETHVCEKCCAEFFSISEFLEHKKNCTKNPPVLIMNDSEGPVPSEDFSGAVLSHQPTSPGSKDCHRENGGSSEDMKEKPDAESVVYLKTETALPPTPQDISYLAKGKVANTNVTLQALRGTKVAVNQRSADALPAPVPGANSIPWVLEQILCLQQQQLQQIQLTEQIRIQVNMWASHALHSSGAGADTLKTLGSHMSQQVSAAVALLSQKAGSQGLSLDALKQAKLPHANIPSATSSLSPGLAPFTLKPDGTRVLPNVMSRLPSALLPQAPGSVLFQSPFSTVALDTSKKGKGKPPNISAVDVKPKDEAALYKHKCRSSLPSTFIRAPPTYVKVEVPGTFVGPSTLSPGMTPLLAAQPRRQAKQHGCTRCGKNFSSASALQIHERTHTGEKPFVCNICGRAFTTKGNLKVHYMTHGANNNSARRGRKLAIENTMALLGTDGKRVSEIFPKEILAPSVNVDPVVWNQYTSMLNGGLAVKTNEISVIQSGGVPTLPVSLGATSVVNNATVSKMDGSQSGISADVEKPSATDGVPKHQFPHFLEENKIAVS
Oligonucleotide,E-score
AGCCTGGG,-0.293
GGCAATAA,0.217
CTTGGATA,0.0665
ATGACACG,0.0915
AGTCAAAG,0.00017
AAAAGACC,-0.0081
AGAGTTTA,0.2
CTCGCTGA,-0.173

# Series 5 — technique: RNA Bind-n-Seq; form: RNA; matrix: in vitro; tested at: 365 nM; baseline: no-protein control; reading: higher = stronger binding
# Target: RNA binding protein fox-1 homolog 2, RRM domain, GST-SBP tag (RBFOX2, Homo sapiens, UniProt O43251-10, residues 100-194)
# Setting: natural RNA segment, single round, ends assumed
# Target sequence (chain): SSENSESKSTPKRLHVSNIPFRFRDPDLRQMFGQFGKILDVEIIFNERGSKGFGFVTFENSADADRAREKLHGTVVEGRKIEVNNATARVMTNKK
Oligonucleotide,RBNS enrichment (R)
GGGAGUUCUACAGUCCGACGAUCGUAUUUUGUUUUAGAAGGUCCUGGCCCAGCGUUGGUUCUUCCUCCUGUAUCCUGUGAGGCCUGGAGCUUUUCAAACACUAGAGGGGGCCUUAGAGUAAGUGGAAAGGACUUGGAAUUCUCGGGUGCCAA,0.458
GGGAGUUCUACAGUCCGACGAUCCUAUGGACCUCAGGGCACUCUCCGUGCUGCCCACAAAGACUUGGGUGGAAAAGACUCAAAGGCACUUGGGCCAUUCAGGACCACCCCAGCUGUGUCUGGGUUGGUGGGGAUGGAAUUCUCGGGUGCCAA,0.228
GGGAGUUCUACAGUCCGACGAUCACUCCUGUCCCGGGAGCUCUCAAUGCUAUCCUGGAUUGCCUCGUACCAGUCAGAGGUCAGGACUCCAUGAGUCCAGCUGCCACAAAGGGUUCAGCUUGGAGGUGACACCUUGGAAUUCUCGGGUGCCAA,0.377
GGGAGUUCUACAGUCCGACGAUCCCAUAAAGACUCCGUGUAACUGUGUGAACACUUGGGAUUUUUCUCCUCUGUCCCGAGGUCGUCGUCUGCUUUCUUUUUUGGGUUUCUUUCUAGAAGAUUGAGAAGUGCAUUGGAAUUCUCGGGUGCCAA,0.529
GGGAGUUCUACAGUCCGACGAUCGUAGUUUCUAUUUUAUAGAAUAUUUAGUCUGAGAAGUUAAAGAAACUAGACCUAGGAUCUCAAAAGUUUUAAAACUUUGACGUUUUCAUAUGUUUGUUUAUUAAUAGGAUUGGAAUUCUCGGGUGCCAA,0.607
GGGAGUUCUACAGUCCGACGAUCGUAAUUUAACUCUAUAAUUGCAGUUACAGCAUUUGGUUUUUGCCAUCUAAGAUUUUCUUGGUUUUAAACAAAAAUAUUCUAUCUUUAUCUGCAGCACAGAGGGAAAUCUGUGGAAUUCUCGGGUGCCAA,0.323
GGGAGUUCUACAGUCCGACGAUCGACGAAGGUCACUUAGGCGAUACCCAUGAAGAAUCAAAAAGUUUAUUUUUUUUCUUCCAACAUGUGAUGUGUUGCUCUCCAUUCUUUUAAAUCUCGCACUACAUCUGAUAUGGAAUUCUCGGGUGCCAA,0.389
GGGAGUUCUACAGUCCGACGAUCCAGGCACCAAGUGCGUAGGCGACGGUAGAUGUUUGCUGAUUGAAUUGAGUCCCCACGGCAUCUCUGGGAGGCAGGUGGUGAGCUCUUCACACAUCUUGAGCGAGAAGGCAUGGAAUUCUCGGGUGCCAA,3.61

# Single results of other studies
SMILES,organism,observed,cells,tested at,measurement,result
Oc1c(I)cc(I)c(O)c1I,SARS-CoV-2,cytopathic effect,Vero E6,10 µM,inhibition,-1.5%
